Measurements of several laboratories.
Each numbered part is a random draw from the data of one study; scales do not carry over between parts.

Study 1
Target: Ras GTPase-activating protein-binding protein 1, RRM domain (G3BP1, Homo sapiens, UniProt Q13283)
Chain of UniProt Q13283 (whole entry, looked up): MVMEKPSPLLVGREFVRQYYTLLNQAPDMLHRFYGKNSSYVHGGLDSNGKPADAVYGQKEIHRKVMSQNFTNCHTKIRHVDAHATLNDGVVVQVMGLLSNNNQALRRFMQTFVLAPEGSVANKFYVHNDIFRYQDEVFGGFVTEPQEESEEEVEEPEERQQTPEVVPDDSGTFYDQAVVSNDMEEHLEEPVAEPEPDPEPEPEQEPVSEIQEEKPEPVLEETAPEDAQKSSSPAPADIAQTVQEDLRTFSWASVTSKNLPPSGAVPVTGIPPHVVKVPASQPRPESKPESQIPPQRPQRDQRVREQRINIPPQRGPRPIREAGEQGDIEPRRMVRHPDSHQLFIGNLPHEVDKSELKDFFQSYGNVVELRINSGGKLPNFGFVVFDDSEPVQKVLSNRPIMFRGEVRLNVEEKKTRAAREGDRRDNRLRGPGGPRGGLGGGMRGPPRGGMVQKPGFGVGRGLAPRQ
Technique: RNA Bind-n-Seq
Molecule type: RNA
Sample: in vitro
Concentration: 1 µM
Setting: whole 134-nt RNA, ends assumed
Added: 150 mM KCl
Baseline: input library
Reading: higher = stronger binding
Quantity: log2 enrichment
Oligonucleotide = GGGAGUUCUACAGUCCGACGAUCUCAAGUCCUGUGCUACACAUCGUAUGUACCGAAUCGGGAGGGUUUGGGAAAGGGAAAGUAUUAUGUUACGCCGUUCGGAUCUGCACUUCCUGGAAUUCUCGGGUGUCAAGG; result = 0.704
Oligonucleotide = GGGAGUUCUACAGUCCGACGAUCUUUGAAGAUCAGCUUCAGCAAUGGUUGUCUGAAGACUCAGGAGCAUUUACGGAUUUAACUUCCCUUCCCCUCUAUCUUCCUCAGACUCUAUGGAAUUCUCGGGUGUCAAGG; result = -0.123
Oligonucleotide = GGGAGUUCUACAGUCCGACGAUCGUCCUGUGCUACACAUCGUAUGUACCGAAUCGGGCCCCCGGCCCCCGGGCCCCCGGGGAAAGUAUUAUGUUACGCCGUUCGGAUCUGCACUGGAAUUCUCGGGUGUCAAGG; result = -0.615
Oligonucleotide = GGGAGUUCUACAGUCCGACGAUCCCUGUGCUACACAUCGUAUGUACCGAAUCGGGAAAAAAAGGGUUUUUUUGGGAAAAAGGGAAAGUAUUAUGUUACGCCGUUCGGAUCUGCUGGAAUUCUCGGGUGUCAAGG; result = -0.302
Oligonucleotide = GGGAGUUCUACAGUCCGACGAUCACCAUGCAGGUGAAAAUCUUUGGGAAGUGGGGCAAGGGGGGGAUAGGGAGGGGGGUAACACUUUGGGAACAGGUGGUCCCAGGUCGUUUCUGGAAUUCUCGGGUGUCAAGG; result = -0.387
Oligonucleotide = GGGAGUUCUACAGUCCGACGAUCCAAGUCCUGUGCUACACAUCGUAUGUACCGAAUCGGGGUUUGGGGUGGGGUGGGGAAAGUAUUAUGUUACGCCGUUCGGAUCUGCACUUCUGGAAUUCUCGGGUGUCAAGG; result = 0.992
Oligonucleotide = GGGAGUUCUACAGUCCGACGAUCUCCUGUGCUACACAUCGUAUGUACCGAAUCAAACCCCCCCAAACCCAAAUUUUUUUAAAAAAGUAUUAUGUUACGCCGUUCGGAUCUGCAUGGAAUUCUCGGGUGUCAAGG; result = -0.299
Oligonucleotide = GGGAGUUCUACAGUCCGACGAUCUGGCCCUGGUGGCAUGCGGGGAGGAAGAGGUGGCCUCAUGGAUCGUGGUGGUCUCGGUGGAAUGUUCAGAGGUGGCCGUGGUGGAGACAGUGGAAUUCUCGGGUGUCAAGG; result = 0.658
Oligonucleotide = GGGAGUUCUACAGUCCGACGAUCUCCUGUGCUACACAUCGUAUGUACCGAAUCGGGGUUUUUGGGGAGGGGAAAAAAAGGGGAAAGUAUUAUGUUACGCCGUUCGGAUCUGCAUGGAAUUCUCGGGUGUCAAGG; result = 0.574
Oligonucleotide = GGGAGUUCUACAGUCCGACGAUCUGGGAGGUGGAUUUUGUUUAUCUUUUUAGCUCAUUUCCAGGGGUGGGAAUUUUUUUUUAAUAUGUGUCAUGAAUAAAGUUGUUUUUGAAAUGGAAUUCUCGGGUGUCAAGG; result = 1.82

Study 2
Target: RNA binding protein fox-1 homolog 2, RRM domain, GST-SBP tag (RBFOX2, Homo sapiens, UniProt O43251-10, residues 100-194)
Technique: RNA Bind-n-Seq
Molecule type: RNA
Sample: in vitro
Concentration: 365 nM
Setting: natural RNA segment, single round, ends assumed
Baseline: no-protein control
Reading: higher = stronger binding
Quantity: RBNS enrichment (R)
Construct (chain): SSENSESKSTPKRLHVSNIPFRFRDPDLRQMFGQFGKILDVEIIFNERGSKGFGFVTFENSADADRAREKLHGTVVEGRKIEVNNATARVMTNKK
Oligonucleotide = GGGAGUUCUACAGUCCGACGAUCCUGUAUCCUGUGUCAUGUCCAAUCAGUUGUAAACAAUGGCAUCUUUGAACAGUGUGAUGAGAAUAGGAAUGUGGUGUUUUAAAGCAGUGUUGCAUUUUAAUCAGUAAUCUUGGAAUUCUCGGGUGCCAA; result = 0.88
Oligonucleotide = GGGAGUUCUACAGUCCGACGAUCCUUAACCAUGUGCAAUUUGUCCUUUAUAAGCUUUGAGUAUCUUACAGCUUGCCUUUUUAAUGUUAGUCACAAUGUUUUUGUGGUUUGAAGUUUAGUUUAAUGUUAGUGCAUGGAAUUCUCGGGUGCCAA; result = 3.07
Oligonucleotide = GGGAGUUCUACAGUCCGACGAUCUUUCCUUUAUGUGAAUUUUUAAGCUGCGAAUCUGAUGGCCUUAAUUUCCUUUUUGACACUGAAAGUUUUGUAAAAGAAAUCCUAUCCAUACACGUUGUAAGAUGUGAAUUUGGAAUUCUCGGGUGCCAA; result = 0.366
Oligonucleotide = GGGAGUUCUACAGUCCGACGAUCGGGAGUGAGUCAGUGUCUGGGAGUGGGGUAGGCAGCUUCCAUUAGGGUCCUUUUCCUUCACCAGCAGUGGGAUAUUCGGAACAGAACCUCCUGCUUUCUGCCCAAGAGUGUGGAAUUCUCGGGUGCCAA; result = 0.314
Oligonucleotide = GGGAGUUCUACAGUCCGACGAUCUCUCAGCUACUCCAGGGCACCUGACUGCUCUGAGGAGAGGGAAGAAGGCCUGCUGGGGCUUUCCAUGGCCUUCUGCUGUUUCUCGCCAACACUACCCAGGACUCUUGCUAUGGAAUUCUCGGGUGCCAA; result = 0.472
Oligonucleotide = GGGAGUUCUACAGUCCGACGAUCCACGCUCAGUGUCUUUGAUAAAAUAGUGUCUUUUUUUCAUGUGUUUUUAUUUCAUUUCUAAGAUUUUUUUUUUAACACUCCGUAUUCUGGAGCAUUUUUUUACAAUUUGGUGGAAUUCUCGGGUGCCAA; result = 1.03
Oligonucleotide = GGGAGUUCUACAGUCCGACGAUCGGUGCUAGACAAGAAGGAAGCAGGUAAAGGGAUAGUUGCUUUGUCAUCCGUUUUUAAUUAUUUUAACUGACCCUUGACAAUCUUGUCAGCAAUAUAGGACUGUUGAACAAUGGAAUUCUCGGGUGCCAA; result = 0.823
Oligonucleotide = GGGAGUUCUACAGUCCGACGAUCCUGAAACUCAUGGGCUUACACAGAGGGAGCCAGGCAUGUUCUUCAGCCCAUCCAUCUCUUGGUUGCUAGUGAUUUUCAUAGAGUAGAUUGACUAGUAAGGUGUUGUAAGUUGGAAUUCUCGGGUGCCAA; result = 2.26
Oligonucleotide = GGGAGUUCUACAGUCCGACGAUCGAACUCUGAUGAGGAGAUGCUGGUAAAUUAUCAUUUUUUAAAUUGCUGGUGAGUCUGACACUUGGUGAGUUUUCAGCCAGUUUGUUAAACUUUUAAUUAAGUUUUGUUUAUGGAAUUCUCGGGUGCCAA; result = 0.811
Oligonucleotide = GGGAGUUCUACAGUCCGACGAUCUAACUCAUGCAUGGCCACUGAACCUCUCUCUAGUAGCCUGGAUUUAUCAUUCUCUCUGCCUGCCCACCCCCUUUUUUGUAUAGCCCAAGAACCACUUCCAUGCCAUACUGUGGAAUUCUCGGGUGCCAA; result = 1.15
Oligonucleotide = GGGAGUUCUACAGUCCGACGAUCCCUAGGGGAGGGGAGAUAAGAAACCCUCACUCUCUACAGGUUUGGGUACAAGUGGCAACCUGCUUCCAUGGCCGUGUAGAAGCAUGGUGCCCUGGCUUCUCUGAGGAAGCUGGAAUUCUCGGGUGCCAA; result = 0.398
Oligonucleotide = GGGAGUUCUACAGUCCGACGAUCGUGAAUGACAGCCUGCCACUCCCUGCCACAGGACUCCCUGUGAGCUGUACAGAGGACCAUGGAGCCUUCCUGAAAGGUCUCGGCCAUCUGUUCUUCUCCACCUCCUCAUGUGGAAUUCUCGGGUGCCAA; result = 0.687

Study 3
Target: Histone acetyltransferase KAT6A, winged helix 1, GST fusion (KAT6A, Homo sapiens, UniProt Q92794, residues 1-85)
Technique: protein binding microarray
Molecule type: double-stranded DNA, one strand shown
Sample: in vitro
Concentration: not given
Setting: 8-mer, flanks averaged, mean of 2 arrays, mostly near background
Baseline: not given
Reading: higher = stronger binding
Quantity: E-score
Target sequence (chain): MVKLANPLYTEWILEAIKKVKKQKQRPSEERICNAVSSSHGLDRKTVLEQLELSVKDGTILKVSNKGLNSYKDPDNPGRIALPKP
Oligonucleotide = CTCGCGAC; result = 0.29
Oligonucleotide = AGCTGGGC; result = -0.126
Oligonucleotide = CTTGAATA; result = -0.0857
Oligonucleotide = CGCGACAA; result = 0.3
Oligonucleotide = GCCAATTA; result = -0.171
Oligonucleotide = AACGGGTG; result = 0.28
Oligonucleotide = ACGGGCAC; result = 0.161
Oligonucleotide = CGTAAGGA; result = -0.0509
Oligonucleotide = ACCTCAGG; result = -0.063
Oligonucleotide = GTAATAAC; result = -0.0102
Oligonucleotide = TAGCTACA; result = -0.208
Oligonucleotide = AACGAGTA; result = -0.0874
Oligonucleotide = ACGCTCCT; result = 0.0201
Oligonucleotide = CCGCTTCG; result = 0.259
Oligonucleotide = ATCAAACG; result = 0.0948
Oligonucleotide = GCCACACC; result = -0.0415
Oligonucleotide = AAAGGAGC; result = 0.0898
Oligonucleotide = ACTCTTAT; result = -0.253
Oligonucleotide = CTACTCAA; result = -0.0971
Oligonucleotide = GTACCCAC; result = 0.134
Oligonucleotide = GTACAAAC; result = -0.151
Oligonucleotide = ATCACGGG; result = 0.186
Oligonucleotide = CATCGATA; result = -0.0429

Study 4
Target: RING finger protein unkempt homolog, zinc fingers 1-6, GST-SBP tag (UNK, Homo sapiens, UniProt Q9C0B0, residues 30-357)
Chain of UniProt Q9C0B0 (30-357, looked up): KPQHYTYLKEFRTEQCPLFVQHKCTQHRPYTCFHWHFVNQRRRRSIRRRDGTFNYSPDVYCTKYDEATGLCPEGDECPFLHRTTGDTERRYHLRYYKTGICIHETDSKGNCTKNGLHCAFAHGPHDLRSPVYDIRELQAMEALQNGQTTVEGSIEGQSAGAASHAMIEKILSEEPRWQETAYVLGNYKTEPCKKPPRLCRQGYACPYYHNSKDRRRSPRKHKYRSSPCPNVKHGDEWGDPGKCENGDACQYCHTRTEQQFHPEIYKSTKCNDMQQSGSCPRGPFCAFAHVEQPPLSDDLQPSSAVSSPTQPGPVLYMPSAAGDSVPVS
Technique: RNA Bind-n-Seq
Molecule type: RNA
Sample: in vitro
Concentration: not given
Setting: RNA with constant flanks, human-mouse chimeric sites, ends assumed
Baseline: input RNA pool
Reading: higher = stronger binding
Quantity: bound/input enrichment
Oligonucleotide = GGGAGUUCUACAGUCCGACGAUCAGUACUGACUCAGGCGGUCCCACAACAACCAAGCUCACAGCAGCAGCAUCUUAGUCACAGUAGGGUAGUUUUGGGGCUCUGUGGCCAGGGUUUUAUUCACAUGCAGGUUUGGAAAAUGUACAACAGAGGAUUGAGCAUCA; result = 1.47 ratio
Oligonucleotide = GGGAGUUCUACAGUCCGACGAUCCUGAAAAACACAGAUAUCAAAGUUGUUGACUUUGGAAGUGCAACAUAUGAUGAUGAACAUCACAGUACUUUGGUGUCUACCCGGCACUACAGAGCUCCCGAGGUCAUUUUGGCUCUAGGUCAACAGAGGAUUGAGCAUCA; result = 0.616 ratio
Oligonucleotide = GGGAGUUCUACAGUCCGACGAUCGUACUGCAGCAGCAGGGAAAACUGCAGGAAGCUCUGAUGCACUAUAAGGAGGCUAUUCGAAUUAGUCCUACCUUUGCUGAUGCCUACUCUAAUAUGGGAAACACUCUAAAGGAGAUGCAGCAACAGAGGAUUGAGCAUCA; result = 0.139 ratio
Oligonucleotide = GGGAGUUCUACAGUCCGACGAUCAACAUUUUGUCAAAUUGUUAUGUUCCUGUGAAACAAGUGAGCACUUUGAUACACUUCAUCUGCUUGUACAUCUGUAUGAUAGAGAAAUGUAAAUAUGUUAAUCCAAGCAAUGUGUCACUUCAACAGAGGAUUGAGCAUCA; result = 0.18 ratio
Oligonucleotide = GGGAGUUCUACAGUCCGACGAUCUAUAUCACCAAUGUCCUACAAAAUCCUGACUUGGCUCUGAGAAUGGCUGUGCGGAACAACUUAGCCGGUGCUGAAGAACUCUUUGCCCGGAAAUUUAAUGCUCUUUUCGCCCAGGGAAACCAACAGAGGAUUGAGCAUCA; result = 0.402 ratio
Oligonucleotide = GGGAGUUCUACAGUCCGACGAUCGCCACCAGAUCCCAGAAACAUGACUCUUGCUGCCUACAAAGAGAAGAUGAAGGAGCUCCCGCUGGUGUCCUUGUUCUGCUCCUGCUUCCUGGCCGAUCCCCUGAAUAAAUCAUCCUACAACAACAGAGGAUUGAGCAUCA; result = 0.372 ratio
Oligonucleotide = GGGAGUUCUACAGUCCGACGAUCGUACUGCAGCAGCAGGGAAAACUGCAGGAAGCUCUGAUGCAUUAUAAGGAGGCUAUUCGAAUCAGUCCUACCUUUGCUGAUGCCUACUCCAAUAUGGGAAACACUCUAAAGGAGAUGCAGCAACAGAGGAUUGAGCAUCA; result = 0.127 ratio
Oligonucleotide = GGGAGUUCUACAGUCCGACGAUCACCAUUUCUGAAUACACGGCUUUGUGUGUAGUUCACUUACGGUAUUAAAUUAUUAUUGCCCUUAGUUUAUAAUAAGGAUAAUUGCAUUUAAAGAGGUUACUGAAUGUUACUCUGAAACUUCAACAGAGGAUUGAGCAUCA; result = 0.56 ratio
Oligonucleotide = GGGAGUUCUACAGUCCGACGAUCGCAGGAUCUUCUAAGUACCAGUGGGACAUUAUGAAAUCCCUUGGCCUCUCUGAUGACGAGAUAGUAAAGUUUUCUGAAGCAGAGCACUGGCUUGAUUAUUUCCCACCACUGGCCGUUCAGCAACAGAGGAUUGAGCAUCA; result = 0.178 ratio
Oligonucleotide = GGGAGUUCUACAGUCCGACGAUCGAGUCGAGCAAACUUGAAACAAUUCGUUAUCUUGCAGCCUCAGUGUUCACUUGCUUGGCGAUAGCAUAUUGGGAUUUUAGGUUCUGGAAGGAGAACUGACGAUGAUGCUGCCGCUGCUGCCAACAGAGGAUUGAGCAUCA; result = 0.511 ratio
Oligonucleotide = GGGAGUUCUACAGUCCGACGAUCAAGCAACUUAUGGAAACAACAAUUCGUUAUCUUGCAGCCUCAGUGUUCACUUGCUUGGCGAUAGCAUUGGGGUUUUAUAGGUUCUGGAAGGAGAACUGACGAUGAUGCUGCCGCUGCUGCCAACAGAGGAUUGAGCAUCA; result = 0.242 ratio

Repeated from above (study 3):
Oligonucleotide = AACGAGTA; result = -0.0874
Oligonucleotide = ACGCTCCT; result = 0.0201
Oligonucleotide = CCGCTTCG; result = 0.259
Oligonucleotide = ATCAAACG; result = 0.0948
Oligonucleotide = GCCACACC; result = -0.0415
